# Results gathered from unrelated publications.
# Compare with care: the assays were run in different laboratories. ± marks the error that the study gave.
# TNK2: Activated CDC42 kinase 1 (TNK2, Homo sapiens, UniProt Q07912)
# Sequence of UniProt Q07912 (whole entry, looked up): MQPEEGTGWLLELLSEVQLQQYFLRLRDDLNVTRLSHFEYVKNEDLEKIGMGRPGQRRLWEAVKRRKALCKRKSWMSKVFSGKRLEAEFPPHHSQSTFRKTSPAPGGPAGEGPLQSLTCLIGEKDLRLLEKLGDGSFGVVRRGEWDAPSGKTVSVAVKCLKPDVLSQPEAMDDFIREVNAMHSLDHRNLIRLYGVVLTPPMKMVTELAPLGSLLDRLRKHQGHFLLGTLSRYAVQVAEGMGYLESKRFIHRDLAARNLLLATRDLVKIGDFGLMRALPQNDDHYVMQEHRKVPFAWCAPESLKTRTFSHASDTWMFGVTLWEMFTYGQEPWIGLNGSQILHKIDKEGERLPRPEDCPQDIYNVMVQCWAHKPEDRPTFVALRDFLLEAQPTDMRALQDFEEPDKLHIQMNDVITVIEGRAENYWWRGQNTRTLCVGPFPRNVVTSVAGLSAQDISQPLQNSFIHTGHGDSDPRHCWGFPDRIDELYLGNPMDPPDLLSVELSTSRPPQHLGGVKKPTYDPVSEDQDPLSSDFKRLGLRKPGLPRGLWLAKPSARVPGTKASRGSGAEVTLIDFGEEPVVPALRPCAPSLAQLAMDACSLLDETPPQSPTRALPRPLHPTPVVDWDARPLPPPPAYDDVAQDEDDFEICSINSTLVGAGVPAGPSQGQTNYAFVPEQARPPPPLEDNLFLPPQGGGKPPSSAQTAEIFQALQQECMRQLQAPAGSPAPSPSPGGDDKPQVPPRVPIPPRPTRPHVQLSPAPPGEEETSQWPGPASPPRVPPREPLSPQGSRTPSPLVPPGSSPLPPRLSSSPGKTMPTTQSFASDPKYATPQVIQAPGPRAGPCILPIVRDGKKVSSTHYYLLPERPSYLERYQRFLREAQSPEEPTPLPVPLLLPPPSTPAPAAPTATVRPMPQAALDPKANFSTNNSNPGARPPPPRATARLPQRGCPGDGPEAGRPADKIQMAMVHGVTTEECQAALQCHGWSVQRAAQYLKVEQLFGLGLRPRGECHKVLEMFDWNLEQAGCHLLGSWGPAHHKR
# UCHL1: Ubiquitin carboxyl-terminal hydrolase isozyme L1 (UCHL1, Homo sapiens, UniProt P09936)
# Sequence of UniProt P09936 (whole entry, looked up): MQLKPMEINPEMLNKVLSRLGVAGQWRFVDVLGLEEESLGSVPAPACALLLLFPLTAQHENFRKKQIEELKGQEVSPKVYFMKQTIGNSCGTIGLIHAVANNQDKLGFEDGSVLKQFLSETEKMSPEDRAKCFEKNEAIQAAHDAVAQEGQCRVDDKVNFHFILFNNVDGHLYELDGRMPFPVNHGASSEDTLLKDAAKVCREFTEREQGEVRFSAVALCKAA
SMILES,target,test,conditions,scale,quantity,value
C=CC(=O)N1CCC(COCC(=O)N2CCN(c3nc(-c4cnc(N)nc4C(F)F)nc(N4CCOC[C@@H]4C)n3)CC2)CC1,TNK2,KINOMEscan,1 µM,,remaining binding,98%
Cn1ccnc1Sc1ccc(C=C(C#N)C(N)=O)cc1[N+](=O)[O-],UCHL1,"covalent, intact protein LC-MS",12.5 µM,,labelling,10.8%
C=CC(=O)N1CCC[C@@H](n2nc(-c3ccc(Oc4ccccc4)cc3)c3c(N)ncnc32)C1,TNK2,,0.1 µM,,remaining activity,99.9%
COc1cc(F)ccc1-c1ncnc(Nc2cccc(C[S@](C)(=N)=O)c2)n1,TNK2,kinase activity,"10 µM, together with: 10 µM ATP",,remaining activity,54%
CCOc1cc(-c2nncn2C)ccc1Nc1ncc2cc(C)nc(NCC(C)(C)C)c2n1,TNK2,"binding, LanthaScreen binding",1 µM,,displacement,44%
C=CC(=O)N1CCC[C@@H](n2nc(-c3ccc(Oc4ccccc4)cc3)c3c(N)ncnc32)C1,TNK2,"kinase activity, inhibitor, HotSpot radiometric","100 nM, together with: ATP 10 µM",,remaining activity,69.2 ± 0.4%
[2H]c1cc(C)c(NC(=O)c2cnc(Nc3cc(N4CCCCC4)nc(C)n3)s2)c(Cl)c1,TNK2,,0.01 µM,,inhibition,30 to 90%
COc1ccc(F)cc1C(=O)NCc1ccc(-c2nn([C@@H](C)C(F)(F)F)c(N)c2C(N)=O)cc1,TNK2,"kinase activity, inhibitor, HotSpot radiometric","100 nM, together with: ATP 10 µM",,remaining activity,84.1 ± 0.3%
Cc1cc(Nc2cc(N3CCN(C)CC3)nc(Sc3ccc(NC(=O)C4CC4)cc3)n2)[nH]n1,TNK2,"kinase activity, KinaseProfiler","0.03 µM, species human",relative to: control,remaining activity,103%
C=CC(=O)N1CCC([C@@H]2CCNc3c(C(N)=O)c(-c4ccc(Oc5ccccc5)cc4)nn32)CC1,TNK2,"kinase activity, inhibitor, HotSpot radiometric","100 nM, together with: ATP 10 µM",,remaining activity,96.6 ± 0.4%
N#CC(=Cc1ccccc1OC(F)F)C(=O)Nc1ccccc1Cl,UCHL1,"covalent, intact protein LC-MS",12.5 µM,,labelling,34.1%

# Repeated from above:
SMILES,target,test,conditions,scale,quantity,value
CCOc1cc(-c2nncn2C)ccc1Nc1ncc2cc(C)nc(NCC(C)(C)C)c2n1,TNK2,"binding, LanthaScreen binding",1 µM,,displacement,44%
